Results collected from several papers.
Parts stem from different laboratories: compare values within a part only. Substitutions count along the parent as printed.

Study 1
Target: Protein max, full length (MAX, Homo sapiens, UniProt P61244-2, residues 1-151)
Technique: protein-binding microarray
Form: double-stranded DNA, one strand shown
Matrix: in vitro
Concentration: not given
Setting: k-mer, scored over probes, only values ≥0.25
Reading: higher = stronger binding
| Sequence | E-score |
| --- | --- |
| ACATGTGG | 0.481 |
| GTGTGCAA | 0.282 |
| CACATGAC | 0.455 |
| CGTGGCCA | 0.376 |
| GCGTGGCC | 0.427 |
| AGACCATG | 0.384 |
| GCGGGCAC | 0.275 |
| ACGCGCAG | 0.312 |
| CACGAGAG | 0.32 |
| AACAGGTG | 0.396 |
| AAACCATG | 0.345 |
| CGTGCGTC | 0.41 |

Study 2
Target: RNA binding protein fox-1 homolog 2, RRM domain, GST-SBP tag (RBFOX2, Homo sapiens, UniProt O43251-10, residues 100-194)
Technique: RNA Bind-n-Seq
Form: RNA
Matrix: in vitro
Concentration: 365 nM
Setting: natural RNA segment, single round, ends assumed
Reference: no-protein control
Reading: higher = stronger binding
All sequences stand within: GGGAGUUCUACAGUCCGACGAUC … UGGAAUUCUCGGGUGCCAA
| Sequence | RBNS enrichment (R) |
| --- | --- |
| UAAGGUAAGGACGGCCGUGUUUUGAGGGUCUUCCUUUCCUAUGAGUGCUUUUUCUUUUCUUCUGUUCAAAGAGGUCAUAUUACAAGGUUUUUUGAAAUUGUGAAUUCUAA | 1.29 |
| CUGUAGUUGGACCAAAAAAACAAAUGAGCCGUUGGACCAUUUGAGCAGUCAGUUUCUGGUCCUUAGAUGUAUUCUAAGCAGUGUAAGUGUCUGAUUGUACCCUGGUGGCA | 0.844 |
| UCCCUUCUUUACCUUCAUUUCAUCCUGUUGGCUGCUGCCACCAAAUCUGUCUAGAAUCCUGCUUUACAGGAUCAUGUAAAUGCUCAAAGAUGUAAUGUAGUUCUUUGUUC | 0.642 |
| GAAUUUGACUCUCCAACUUUAGGAACCUCGAAAAGUGAGACGAUUCUGGGAUAAGAAACCUUCCCUGUUUGAGGACAUUGGCUUCAUUUUAUACUGUUUUGGCAUGGACU | 5.94 |
| UACAAUAAACAUUUGAAGGCAGCAUAGGAUGGCAGACAGUAGGAACAUUGUUUCACUUGGCGGCAUGUUUUUGAAACCUGCUUUAUAGUAACUGGGUGAUUGCCAUUGUG | 0.741 |
| CCACCACGCCAUCAUCGUCACCGUUGACAGAACAGUCCUUAAUCCAGAAAGCCUGACAUGAAGGAAGAGGAGACUCUUCGAGGAGCACUUUGGGUCCGGAGGGCGAGACU | 0.537 |
| AUUCUCCCUUCCUCCUCCUUCUUUUCUAUUGGGGCCCUCAACAGAUUGGAUGGAGUGGAUGUCUUCACUCAGUCUGCCAAUUCCCAUCCUAACCUCUUCUGGAAACACCC | 0.711 |
| ACCAGGCAGGGAGCUUCCCCAGGAUAGUGUGGUGGAGUCAGGACUCACUCCAUCCUGCACUUUACCCACAGGACACCUGGAGGGUCCCCCAGCCCUGCUUGCUUUUGUGA | 0.917 |
| AAAAUCUUUGGGGAACAAACUUAUUUAACUGUAGAGUAAGUUUCCUAUUAUGAAAUAAGUAAAGGUAGAAAAAUAAUGGUCUGUUGUUACUUAAGAAUACUCCUGGCAUA | 0.72 |
| UCGAUUCUGCACAGCCCAGCCUCCCCGAGGGCCUUUCCAAGCACAGUGGGGAUUUCUUAGAACAGGAGAGAGGAAUCCAUGAAGCAGGAGAAGCAGUGCCUGCCAGCUGU | 0.388 |

Study 3
Target: CCNE1, cyclin fold, Cln2 fusion (human)
Technique: yeast growth competition, sequencing
Matrix: yeast
Setting: weak parent motif
Reference: not given
Reading: higher = stronger binding
Parent: WEE1 docking peptide (human); HKTFRKLRLFDTP
| Substitution | normalised enrichment score |
| --- | --- |
| T12A | 0.708 |
| R5S | 0.481 |
| T12K | 0.48 |
| K2T | 0.902 |
| L9M | 0.344 |
| H1K | 0.208 |
| H1Y | 0.347 |

Other studies, line by line
| Molecule | target | assay | system | setting | scale | endpoint | value |
| --- | --- | --- | --- | --- | --- | --- | --- |
| PhoQ, residues 284 288 289 292 302 303 AAQSYM | PhoP, residues 12 14 15 18 19 LHATL (Escherichia coli, UniProt P23836) | Sort-seq, item: YFP reporter | E. coli | PhoQ-PhoP variant library, with: 10 µM Mg2+ | reference: high Mg2+ state, higher = stronger signaling | fold induction | 19.7 |

Some of these lines once more (study 1):
| Sequence | E-score |
| --- | --- |
| AAACCATG | 0.345 |
| CGTGGCCA | 0.376 |
| CACATGAC | 0.455 |
| ACGCGCAG | 0.312 |
| CACGAGAG | 0.32 |
